Results pooled from the literature.
Each numbered part is a random draw from the data of one study; scales do not carry over between parts.

Set 1
Target: RNA binding protein fox-1 homolog 2, RRM domain, GST-SBP tag (RBFOX2, Homo sapiens, UniProt O43251-10, residues 100-194)
Technique: RNA Bind-n-Seq
Form: RNA
Sample: in vitro
Tested at: 365 nM
Notes: natural RNA segment, single round, ends assumed
Baseline: no-protein control
Direction: higher = stronger binding
Shared flanks, not repeated: GGGAGUUCUACAGUCCGACGAUC … UGGAAUUCUCGGGUGCCAA
Residues (chain): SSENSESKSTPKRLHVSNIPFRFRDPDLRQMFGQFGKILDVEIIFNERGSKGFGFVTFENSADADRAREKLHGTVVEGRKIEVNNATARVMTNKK
Strand | RBNS enrichment (R)
CCAAGCAGAGGCUCCCCUCAUGAAGGAAGCCAUUGCACUGUGAACACUGUACCUGCCUGCUGAACAGCCUGCCCCCGUCCAUCCAUGAGCCAGCAUCCGUCCGUCCUCCA | 6.91
UGAUCAGUGGCUAAAGUUGAAAAGGGGUUGGUUUCUUUCAUAUAUGUAUGUGUGUGUACAUGCGCAUACAUAGAUAUAUGCACACAUAGAUUAUGUGCUUGACCACUGCC | 0.314
UGACCAGUCUGCCUGCUCCUUACUAUAAUUGUGAGGAUUUGUUACUGGAACAGUACAUGGAGGCCUGACCUUGUGGGGGCACAGGGUGGAACCUUAGCUGAAUAUAGUGU | 1.82
AAGACCUUUAAUGAUACUUAUGAUGCACUCAGUGCCAUACAAUAGUGUUUUAAGAAGCACAUGGCCUCAUUUUCCUUAGAAACAAGACAAAGCCUUUUUAAAAUGUUUUU | 0.732
CUGCUAUUUGAAGUGUAAUUGAGAAGGAAAAUUUUAGCGUGCUCACUGACCUGCCUGUAGCCCCAGUGACAGCUAGGAUGUGCAUUCUCCAGCCAUCAAGAGACUGAGUC | 1.35
AGUGGCACGAUUUAUUUCAAACUAGGCCAGCUGGGAUUCCAGCUUUUCUUCUACUAGUCUGAUGUUUUAUAAAUCAAAACCUGGUUUUCCUUCUCUGACAUUUUUUUUUU | 0.425
GUAACUAGGUGUAAAAAUCAUGUGUUGCAGCUUUAUAGUUUUUAAAAUAUUUUAGAUAAUUCUUAAACUAUGAACCUUCUUAACAUCACUGUCUUGCCAGAUUACCGACA | 0.418
GAGGGAACAGCCUCCUGGGUCUUCCUUCUGGUCAUCUCCUUGGGGCAGCACAGGACCACUUCAUGGCUGUCUAGUUAUGGUCCCUGGAGGGCUAUUUGCCCACCUUCACU | 0.156
CCUGCCAUGCUGUGGCCAACUGUUUCACUGGAGCAAGAAAGAGAUCUCAUAGGACGGAGGGGGAAAUGGUUUCCCUCCAAGCUUGGGUCAGUGUGUUAACUGCUUAUCAG | 0.669
GUUUAUUUCUGUGGCCUGAGAAGGAAGGGACCUCCACGACAGGUGGGCUGGGUGCGAUCGCCGGCUGUUUGGCAUGUUCCCACCGGGAGUGCCGGGCAGGAGCAUGGGGU | 1.64
UGGUCUUGAGGGAAUGUUAGCAAGGAACACAUAGAAGAUUUGGUGUUUCAUAAGCCUGUCUAGGUGUGGCAGGUUUUGUGUGGUACACUGAUGUUUACCAUAAGCAGGUA | 2.24
GGGGCCUCUGUCAUUGUCUCAAAGACAGAGCUUAAAGAGGUCAGAAUGAGUUCUCUGUUGUGCCCCCACUGCAGCUGUCUCUUGUGCUCUCCAGGUAUGCAGCUCAUAUG | 0.317

Set 2
Target: RING finger protein unkempt homolog, zinc fingers 1-6, GST-SBP tag (UNK, Homo sapiens, UniProt Q9C0B0, residues 30-357)
UniProt Q9C0B0, sequence (30-357, looked up): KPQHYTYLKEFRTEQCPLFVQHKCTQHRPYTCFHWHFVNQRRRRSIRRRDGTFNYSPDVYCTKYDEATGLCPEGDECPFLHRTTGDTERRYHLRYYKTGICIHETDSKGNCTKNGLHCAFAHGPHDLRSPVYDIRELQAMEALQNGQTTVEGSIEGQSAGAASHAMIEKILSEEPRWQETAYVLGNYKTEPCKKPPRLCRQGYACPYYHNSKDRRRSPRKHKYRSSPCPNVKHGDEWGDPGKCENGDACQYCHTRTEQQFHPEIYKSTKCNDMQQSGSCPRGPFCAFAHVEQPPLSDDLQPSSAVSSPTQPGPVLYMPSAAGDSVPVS
Technique: RNA Bind-n-Seq
Form: RNA
Sample: in vitro
Tested at: not given
Notes: RNA with constant flanks, human and mouse sites, ends assumed
Baseline: input RNA pool
Direction: higher = stronger binding
Shared flanks, not repeated: GGGAGUUCUACAGUCCGACGAUC … CAACAGAGGAUUGAGCAUCA
Strand | bound/input enrichment [ratio]
CACCUGCAGGAUAUUAAAGUGAAAUUUUCUGACCCUGGACAGCCUAUGUCUUUUGUGUUAGAGUUCCACUUUGAACCCAACGACUACUUUACCAACUCAGUCCUGACAAAAACCUACAAG | 0.156
UGUGUAUAGGGGGAAGGGGUUCUUUACAUUUUCUGUGGUUUGUGCUUUUUUCUUCAGUAAAUUAGUUCCCACCAUCGCAUGCCCAGGGGCCACUACCUGGCAUUAUCGCAUGCUGGGAUC | 0.664
AAUUCAUCCCUCGUGCACAUCCUGUUGUGUUUAAGUCACCAGAUAUUUUGUUCCCAUCAGUUUAGCCCAGAGAUAGACAGUAGAAUGCAAAUACCUCCCUCCCCUAAACUGACUGGACGG | 0.485
CGGGAGUCCCAGUGCCACAUCCUGGAAGAUCUGCUUGGCUGCCAUUAACUCUUCCUGGAAUUUAGAAGUUUUUGUUAUUUUUACUUUUAUACAGAUUGGUUUUAAGCUCUUGCCUUCUAC | 2.19
GGAGUCAAAGGGCUAACAGAACAAGAAGUAGAAACAAUAUUGGAUAAGGCAAUGGUCCUUUUUAGGUUUAUGCAAGAAAAAGAUGUAUUUGAACGUUAUUAUAAACAACACCUGGCAAGA | 11.5
GCUAUUCGGGAUGCAUGCUUUGGAAUGUCAGCGAUACAGAUGUUCAAUUUGGAUCGGGCUAAUGUUGAAGAAUUCUAUGAAGUCUAUAAAGGUGUAGUGUCUGAGUAUAAUGAUAUGGUG | 0.836
AAAAACAGGGGUGAGAUAAAGGUCAAUAUUCAAUUUAUGAGGAACAACAUGACAGCAAGCAUGUUUGACUUGUCAAUGAAGGACAAGACGAGAUCACCUUUUGCAAAAUUAAAAGAUAAG | 0.262
GAAGAACCAAGAGCUUUAUACAUACAUUGUUAUGCACACUUUUUGGAUUUAUCAAUAAUUAGGUUUUGUAAAGAAGUAAAAGAACUCCGAAGUGCUCUAAAAACUCUCAGUUCUUUGUUC | 1.86
AGUGGCUCAGAUGACCUCUUAAUAAAAUGUGAAGAAUAUGAUGGAGAGCAUGACUGUAUGUUCUUGGAUCCACCAUACUCAAGAGUUAUUACACAAAGGGAAACAGAAAAUAACCAAAUG | 0.154
CAAAGAGUGAACAAACAAGUUGGAGAUAUCUUCAGUAAUCCAGAAACAGUCCUGGCUAAACUUAUUCAAAAUGUAUUUGAAAUCAAACUACAGAGUUUUGUGAAAGAGCAGUUAGAAGAA | 0.173
CUUGAUUUCCUACGAAUCAGUGACACAGAAGAGCUUCCAGAAUUUAAGAGUUUUGAGGAACUAGAACCUCCCAAACAUUCAAAAGUCAAACGGCAAAGCAGCACCCCUAGUGCUCCUGAA | 0.539

Set 3
Target: Histone acetyltransferase KAT6A, winged helix 1, GST fusion (KAT6A, Homo sapiens, UniProt Q92794, residues 1-85)
Technique: protein binding microarray
Form: double-stranded DNA, one strand shown
Sample: in vitro
Tested at: not given
Notes: 8-mer, flanks averaged, mean of 2 arrays, mostly near background
Baseline: not given
Direction: higher = stronger binding
Construct (chain): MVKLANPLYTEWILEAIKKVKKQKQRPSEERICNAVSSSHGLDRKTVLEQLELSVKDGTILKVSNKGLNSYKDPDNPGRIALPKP
Strand | E-score
GATGTTCA | -0.139
ACATAATG | -0.0366
CGACTACG | 0.174
GGGCGCAA | 0.183
AAAGTCTG | -0.282
ATAAAGCG | 0.194
AAACGTCT | -0.146
ATGTCCTG | -0.0167
CCTGTACG | 0.083
GACACACA | -0.124
TACTAATA | -0.174
GAGCACTA | -0.0299
GACGGAGC | 0.0753
TATGTTCA | -0.179
AATATCAC | -0.0698
GAAAAAGC | 0.0852
ATGACTAA | -0.0567
AATCCGGC | 0.192
AGGCCCGG | 0.144
ATATCGCC | 0.151
GCGGACAC | 0.272
CCTATGCA | -0.162
CCCGGTTC | 0.166
CACAATGG | -0.213

Set 4
Target: PABPC1L2, full length, GST fusion (mouse, UniProt A0ABA7IW68)
Technique: RNAcompete
Form: RNA
Sample: in vitro
Tested at: 20 nM
Notes: 7-mer, probes averaged, single round
Baseline: mean of 7-mers
Direction: higher = stronger binding
Construct (chain): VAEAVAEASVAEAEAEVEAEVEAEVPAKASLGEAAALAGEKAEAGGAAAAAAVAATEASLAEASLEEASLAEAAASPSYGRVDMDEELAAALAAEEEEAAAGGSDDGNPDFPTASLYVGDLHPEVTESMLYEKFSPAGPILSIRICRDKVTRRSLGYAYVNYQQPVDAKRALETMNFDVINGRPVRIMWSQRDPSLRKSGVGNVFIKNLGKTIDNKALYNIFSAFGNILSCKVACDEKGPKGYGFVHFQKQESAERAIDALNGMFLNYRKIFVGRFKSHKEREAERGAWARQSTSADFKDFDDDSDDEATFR
Strand | 7-mer Z-score
CAAGCGU | -0.103
UGAAUUC | -0.309
AUUGGAU | 0.0116
ACGUGAA | -0.0101
CCUCAGA | -0.215
UCGACUU | -0.267
UGAAUUG | -0.164
GGACGGU | 0.0877
CUUCUAU | -0.456
GCAAAAA | 15.9
GCUGAAG | 0.115
AACUGUG | 0.0859
GGUACGU | -0.179
CAAUUCC | -0.213
AUCCGCC | -0.519
CCAGAGC | -0.175
ACCAUCU | -0.267
CCCACCC | -0.411
UCUGGAA | -0.0192
AGCUUAA | -0.0881
AUUACUC | -0.258
AGAGACU | -0.0464
CUCUACG | -0.264

Set 5
Target: Prothrombin, mature alpha-thrombin (F2, Homo sapiens, UniProt P00734)
Technique: aptamer microarray, sandwich
Form: DNA with 2'F-ANA
Sample: in vitro
Tested at: 200 nM
Notes: whole 15-mer aptamer, many near background
Added: Cy3 exosite-II aptamer, 400 nM
Direction: higher = stronger binding
Strand: GGTTGGTGTGGTTGG
Modification | mean fluorescence intensity
2'F-ANA at 1 4 10 14 15 | 43.3 a.u.
2'F-ANA at 1 3 5 7 8 10 11 | 61.9 a.u.
2'F-ANA at 3 4 5 7 8 10 11 12 | 63.8 a.u.
2'F-ANA at 4 5 6 8 9 10 11 12 13 14 15 | 45.3 a.u.
2'F-ANA at 1 2 3 4 6 7 9 10 15 | 61.4 a.u.
2'F-ANA at 2 3 5 6 7 10 11 12 15 | 55.7 a.u.
2'F-ANA at 1 2 3 4 5 6 8 10 11 | 69 a.u.
2'F-ANA at 1 9 11 14 | 53.1 a.u.
2'F-ANA at 5 7 10 11 12 13 | 46.4 a.u.
2'F-ANA at 1 2 5 7 10 11 13 15 | 44 a.u.
2'F-ANA at 7 8 9 11 | 607 a.u.
2'F-ANA at 6 9 10 11 12 14 15 | 102 a.u.
2'F-ANA at 3 8 10 11 | 509 a.u.
2'F-ANA at 5 6 7 11 15 | 55.5 a.u.
2'F-ANA at 2 4 5 7 10 11 14 | 50 a.u.
2'F-ANA at 1 2 5 6 8 11 12 15 | 83.1 a.u.
2'F-ANA at 2 4 7 9 14 15 | 108 a.u.
